{"data": "Assay results from different studies", "PIP5K1C": "Phosphatidylinositol 4-phosphate 5-kinase type-1 gamma (PIP5K1C, Homo sapiens, UniProt O60331)"}
{"Compound": "CC(C)=CC1OC(C)(C)C2C=C3C(=O)C(Cl)=CC(O)C3C3C(O)C4OC4C(=O)C132 (stereo not drawn)", "target or system": "PIP5K1C", "assay": "cell-free assay, competition with immobilised ligand", "setting": "10 µM", "measurement": "remaining binding", "result": "100%"}
{"Compound": "CCN1CCN(Cc2ccc(C(=O)Nc3ccc(C)c(NCc4cnc5[nH]ccc5c4OC)c3)cc2C(F)(F)F)CC1", "target or system": "PIP5K1C", "assay": "binding, competition with immobilised ligand", "setting": "1 µM", "measurement": "remaining binding", "result": "0.9%"}
{"Compound": "CN1CC[C@@H](COc2cnc(C#N)cc2-c2ccn3nc(NC(=O)C4CC4)cc3c2)C1", "target or system": "PIP5K1C", "assay": "enzyme activity, inhibitor", "setting": "1 µM", "measurement": "inhibition", "result": "20%"}
{"Compound": "COc1c(Cl)cccc1Nc1c(-c2ccncc2C#C[C@@]2(C)CCCN2C(=O)/C=C/CN(C)C)[nH]c2c1C(=O)NCC2", "target or system": "PIP5K1C", "assay": "binding, competition with immobilised ligand", "setting": "3 µM", "measurement": "remaining binding", "result": "100%"}
{"Compound": "C=CC(=O)N1CCCC(n2c(=O)c3ncccc3n(Cc3ccc(Oc4ccccc4)cc3)c2=O)C1 (stereo not drawn)", "target or system": "PIP5K1C", "assay": "cell-free assay, competition with immobilised ligand", "setting": "1 µM", "measurement": "remaining binding", "result": "74%"}
{"Compound": "CC(=O)c1cccc(CN2CCCC(CCC(=O)NCc3ccccc3F)C2)c1 (stereo not drawn)", "target or system": "Trypanosoma cruzi", "assay": "reporter mRNA translation, inhibitor, refers to: capped polyadenylated Renilla luciferase mRNA", "system": "cell-free extract", "setting": "concentration not given", "scale": "reference: control RNA", "measurement": "relative translation", "result": "118%"}
{"Compound": "CNC(=O)C1CCN(c2cc(C)c(F)cc2NC(=O)c2ccc(-c3cc(O)ccc3C)c(C)c2)CC1", "target or system": "PIP5K1C", "assay": "binding, competition with immobilised ligand", "setting": "1 µM", "measurement": "remaining binding", "result": "95%"}
{"Compound": "C=CC(=O)N1Cc2nc(-c3cc(-c4cc(Cl)cnc4Cl)c(F)cc3F)n(-c3ccncn3)c2C1", "target or system": "PIP5K1C", "assay": "cell-free assay", "setting": "1 µM", "measurement": "inhibition", "result": "5%"}
{"Compound": "Cc1nc2c(F)cc(-c3nc(Nc4ccc(CNC(=O)CCCCCCC(=O)NO)cc4)ncc3F)cc2n1C(C)C", "target or system": "PIP5K1C", "assay": "enzyme activity, inhibitor", "setting": "1 µM", "measurement": "inhibition", "result": "16%"}
{"Compound": "CNC1C[S+]2CC[S+]3CC[S+](C1)[Ru-4]321([N]=C=S)[n]2c3ccc(OC)cc3c3c4c(c5cc(F)c[n+]1c5c32)C(=O)NC4=O (stereo not drawn)", "target or system": "PIP5K1C", "assay": "KinomeScan", "setting": "0.1 µM", "scale": "reference: untreated", "measurement": "remaining binding", "result": "97%"}
{"Compound": "CNC(=O)C[C@H](Cc1ccc(C#N)cc1)NC(=O)c1cc(-c2ccc(CN[C@H](C)c3ccc(C)cc3)o2)ccc1Cl", "target or system": "PIP5K1C", "assay": "enzyme activity, inhibitor", "setting": "1 µM", "measurement": "activity vs control", "result": "99%"}
{"Compound": "C=CC(=O)N1CCc2ccc(-n3c(=O)ccc4cnc5ccc(-c6cnn(C)c6)cc5c43)cc21", "target or system": "PIP5K1C", "assay": "KINOMEscan", "setting": "1 µM", "scale": "reference: DMSO control", "measurement": "remaining binding", "result": "63%"}
{"Compound": "COc1cc(Nc2nccc(-c3cnn4nc(OC)ccc34)n2)cc(C(F)(F)F)c1", "target or system": "PIP5K1C", "assay": "binding, competition with immobilised ligand", "setting": "1 µM", "measurement": "remaining binding", "result": "100%"}
{"Compound": "Cc1ccc(-c2c(/C=C(\\C#N)C(=O)NC(C)C)n(CCCO)c3ncnc(N)c23)cc1", "target or system": "PIP5K1C", "assay": "cell-free assay, competition with immobilised ligand", "setting": "1 µM", "measurement": "remaining binding", "result": "100%"}
{"Compound": "COc1cc(Nc2nc(C)cc(-c3cnn4nc(OC)ccc34)n2)cc(C(F)(F)F)c1", "target or system": "PIP5K1C", "assay": "inhibitor", "setting": "1 µM", "scale": "reference: control", "measurement": "remaining activity", "result": "94%"}
{"Compound": "O=C(Cc1ccc(OCc2ccccc2)cc1)NC1(C(=O)O)CCN(C(=O)c2ccc(-c3cccc(Cl)c3)cc2)CC1", "target or system": "PIP5K1C", "assay": "enzyme activity, inhibitor", "setting": "10 µM", "measurement": "activity vs control", "result": "103%"}
{"Compound": "Cc1cnc2nc1Nc1cccc(c1)COC/C=C/COCc1cc(ccc1OCCN1CCOCC1)N2", "target or system": "PIP5K1C", "setting": "concentration not given", "measurement": "percent of control", "result": "100%"}
{"Compound": "Nc1ncc2c(n1)-c1c([nH]c3ccc(C4=CCOCC4)cc13)CCC2", "target or system": "PIP5K1C", "assay": "binding, competition with immobilised ligand", "setting": "1 µM", "measurement": "remaining binding", "result": "0%"}
{"note": "Repeated from above:"}
{"Compound": "C=CC(=O)N1CCc2ccc(-n3c(=O)ccc4cnc5ccc(-c6cnn(C)c6)cc5c43)cc21", "target or system": "PIP5K1C", "assay": "KINOMEscan", "setting": "1 µM", "scale": "reference: DMSO control", "measurement": "remaining binding", "result": "63%"}
{"Compound": "COc1cc(Nc2nccc(-c3cnn4nc(OC)ccc34)n2)cc(C(F)(F)F)c1", "target or system": "PIP5K1C", "assay": "binding, competition with immobilised ligand", "setting": "1 µM", "measurement": "remaining binding", "result": "100%"}
{"Compound": "Cc1ccc(-c2c(/C=C(\\C#N)C(=O)NC(C)C)n(CCCO)c3ncnc(N)c23)cc1", "target or system": "PIP5K1C", "assay": "cell-free assay, competition with immobilised ligand", "setting": "1 µM", "measurement": "remaining binding", "result": "100%"}
